Results collected from several papers.
Numbered parts are unrelated; each lists some results of a single study. Substitutions count along the parent as printed.

Sample 1
Target: RNA binding protein fox-1 homolog 2, RRM domain, GST-SBP tag (RBFOX2, Homo sapiens, UniProt O43251-10, residues 100-194)
Method: RNA Bind-n-Seq
Molecule type: RNA
Matrix: in vitro
Concentration: 365 nM
Notes: natural RNA segment, single round, ends assumed
Reference: no-protein control
Direction: higher = stronger binding
Shared flanks, not repeated: GGGAGUUCUACAGUCCGACGAUC … UGGAAUUCUCGGGUGCCAA
Residues (chain): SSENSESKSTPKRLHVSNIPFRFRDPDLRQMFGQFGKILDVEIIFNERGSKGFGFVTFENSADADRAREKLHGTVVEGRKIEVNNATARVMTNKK
Sequence | RBNS enrichment (R)
UGAAGGACAGAGUAAAGCUUCUGAAUGAGGCUCUGUGGCUUCACACUCUGUCAUCCUAUUGGCUGCUUCCCUCUACUAUUUGUAAAAUGUGUAGUGAAUUAUAACAACCU | 0.207
AAGAUACUGACGUAGAACGGUAUUAGAAAAUGACACUUCAAAAAUGUUGGAUACCAAAGCACGGUAGCUGCCGGGUGAGCGGCAGUGAUUGGCAGAGAUGGGGACUUGAG | 2.4
GAAAUAAGGGGAAGCUUUAGAGUUUAAUAGGAUAUUCAAAACUAUAAAAGAAUAUCAUCUUAAAAAACUGUUCUGGCAACUAUCUGCUACCAGAAGGUUAGAUUGAGAAA | 0.486
GCUUUAUCAUUCUGAAAACUCAGGAUACAGCUUAUUCAUAGCAUUGUGGGUCUCUCCAGUAAGAAAGAUGCUAAAAGUUUUGUGCACUUUUUGUGUGUGUAAUGCAAAUU | 0.484
UUUGAAUUCCUCCUCUAUUUAAGAUAUAUACAUGGAAUCGAAGUGUUUAUGUAAUAGUUCUAUCCUUUUGCCUGCAGGUCAGUUGUAAUAAAUCUAGGAUGUGAUGAUGA | 4.76
GGAGGAUCCCUCCUCCCCAGAUAAAGACAGGAGAGAACUCAUGUUUUAAUAUUUGAUGCUCAUAUGUGUCUUUAGUGUGAGCUCUUGUGUUUUGAAAUGAUUGCUUCAGU | 0.457
UCUGGGACAGGGGGCUGCCACUAAGCACACACACUCCUCCUAUUUUCCAGAAGUGAACAUUUCAUGUUUAGGUGCCGAAUGUGAAUCUGGGUGGGGAGAGCGGGAGCCCU | 0.482
GUGGGGGUCCUGGUGCAGGCAGUGAACAGGCUUCUAAUGUGGGGUUCAGUAGUGCCAGCAAGUGGGGGAAACUUUCAGUAUUGCGCUAGGUCAACACUUCCUGCUGCAUU | 0.496
UACCUGGACUCAAUGACAAAGACCGAGUCUUCUUUUUUUUUAAACAAAAACAAAAAAAGCAACCAGGGCUAUUUGUACAGUUGAAGGGGUGAACAGAAUGGGCGGCUGUG | 0.819
AACAAAGUGAGGUGAACCAAACAGAGCUGCCAUCUUCCACACCAUGUUGGAAAUAAAACACGUCCUAGCUGAACCCUUACUGUCCAGGAGGUUCCGUGUGGAGGUGGCAC | 0.209
UAGACAAGUUUAUAUAUAACUUACCAAGAUGUUGGCUGUCCUGGUGUAUUGCCAGACAGCUCUCUUUUGGUUCCCAUUCCAAAUGUGCUGCUGUCCUUCUUUGCAUUUCA | 0.24
CACACUUCUCUUAUUUCUCCUAGAGCCCCGUGCCCCUCUGAAGUGUUACCACAAUCUAGCUUACCUAGCAGCCGUUGAUUGUUUUUUUUCCAUCUGAGCAAACAGGUAAU | 0.435

Sample 2
Target: ABI1, truncated, D143A, DHFR fusion (Arabidopsis thaliana)
Method: DHFR PCA, deep sequencing
Matrix: yeast
Notes: methotrexate growth selection, single substitutions
Added: (+)-ABA 58 µM
Reference: wild-type fitted maximum
Direction: higher = stronger binding
Parent: PYL1, truncated, DHFR fusion (Arabidopsis thaliana); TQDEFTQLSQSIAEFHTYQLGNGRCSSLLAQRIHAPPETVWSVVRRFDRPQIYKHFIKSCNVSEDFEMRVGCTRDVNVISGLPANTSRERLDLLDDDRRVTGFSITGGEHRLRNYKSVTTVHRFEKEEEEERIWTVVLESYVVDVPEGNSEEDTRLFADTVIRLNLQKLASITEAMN
Variant | relative binding score [%]
T6Q | 96.7
V121K | -4.37
K58W | 46
L91A | -1.28
K126H | 95.2
S117G | 21.5
I162N | 25.1
E151V | 85.1
I33S | 6.74
R163F | 11.1
A84N | 17.9
T73C | 82.3
H110E | 5.82
T173M | 70.5
E174A | 68.9

Sample 3
Target: CCNE2, cyclin fold, Cln2 fusion (human)
Method: yeast growth competition, sequencing
Matrix: yeast
Notes: strong parent motif
Reference: not given
Direction: higher = stronger binding
Parent: CDKN1A docking peptide (human); SKACRRLFGPVDS; partner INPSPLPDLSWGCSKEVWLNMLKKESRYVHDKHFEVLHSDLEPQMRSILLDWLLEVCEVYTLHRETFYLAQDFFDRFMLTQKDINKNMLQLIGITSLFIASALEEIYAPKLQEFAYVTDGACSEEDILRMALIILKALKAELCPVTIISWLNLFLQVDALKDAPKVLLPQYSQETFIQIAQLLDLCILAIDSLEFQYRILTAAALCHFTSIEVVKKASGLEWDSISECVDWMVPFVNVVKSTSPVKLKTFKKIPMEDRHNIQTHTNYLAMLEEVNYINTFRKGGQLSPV
Variant | normalised enrichment score
SKACRRLFGPTDS [V11T] | 4.37
SKACRRLFNPVDS [G9N] | 3.46
SKACRRLFIPVDS [G9I] | 3.55
SKACRRFFGPVDS [L7F] | 0.561
SKACRTLFGPVDS [R6T] | 1.39
SKACRREFGPVDS [L7E] | -0.188
SKACRRLFGPVCS [D12C] | 2.59
SKACRMLFGPVDS [R6M] | 1.86
SKACTRLFGPVDS [R5T] | 0.34
SKACRRLFGPVTS [D12T] | 3.01
SKACRRLFGRVDS [P10R] | 2.42
SKACRRLFQPVDS [G9Q] | 4.81
SKACKRLLGPVDS [R5K F8L] | 0.174
SKACRGLFGPVDS [R6G] | 0.537
SKACYRLFGPVDS [R5Y] | -0.0531
SKACRRSFGPVDS [L7S] | 0.27
SKAPRRLFGPVDS [C4P] | 0.512
SAACRRLFGPVDS [K2A] | 3.15
SKACRRLAGPVDS [F8A] | -0.114

Sample 4
Target: Ras GTPase-activating protein-binding protein 1, full length (G3BP1, Homo sapiens, UniProt Q13283)
UniProt Q13283, sequence (whole entry, looked up): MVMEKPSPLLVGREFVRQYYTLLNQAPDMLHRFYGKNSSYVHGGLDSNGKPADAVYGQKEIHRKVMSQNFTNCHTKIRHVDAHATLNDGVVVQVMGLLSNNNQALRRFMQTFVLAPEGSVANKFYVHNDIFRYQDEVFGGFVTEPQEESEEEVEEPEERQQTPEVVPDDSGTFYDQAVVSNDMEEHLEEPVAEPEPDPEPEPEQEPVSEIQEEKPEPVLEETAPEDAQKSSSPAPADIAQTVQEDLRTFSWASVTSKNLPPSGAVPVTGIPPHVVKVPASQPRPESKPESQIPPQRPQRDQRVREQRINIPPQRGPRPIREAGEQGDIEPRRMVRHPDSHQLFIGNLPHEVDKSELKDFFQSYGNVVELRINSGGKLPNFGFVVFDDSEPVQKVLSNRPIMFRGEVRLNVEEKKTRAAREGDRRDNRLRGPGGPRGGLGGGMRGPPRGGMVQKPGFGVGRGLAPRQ
Method: RNA Bind-n-Seq
Molecule type: RNA
Matrix: in vitro
Concentration: 200 nM
Notes: whole 134-nt RNA, ends assumed
Added: 150 mM LiCl
Reference: input library
Direction: higher = stronger binding
Each molecule: 7-deaza-guanosine replaces G
Shared flanks, not repeated: GGGAGUUCUACAGUCCGACGAUC … UGGAAUUCUCGGGUGUCAAGG
Sequence | log2 enrichment
CCUGUGCUACACAUCGUAUGUACCGAAUCAAAUUUUUAAAUUUUUUUAAACCCCCCCAAAAAAGUAUUAUGUUACGCCGUUCGGAUCUGC | 1.26
AAGUCCUGUGCUACACAUCGUAUGUACCGAAUCGGUUUUUUUGGAAAAAGGUUUGGAAAGUAUUAUGUUACGCCGUUCGGAUCUGCACUU | -3.27
UCAAGUCCUGUGCUACACAUCGUAUGUACCGAAUCGGUUUUUUUGGAGGAAAGGAAAGUAUUAUGUUACGCCGUUCGGAUCUGCACUUCC | 0.165
CAAGUCCUGUGCUACACAUCGUAUGUACCGAAUCGGUUUUUGGAAAAAGGUUUGGAAAGUAUUAUGUUACGCCGUUCGGAUCUGCACUUC | -2.5
CAAGUCCUGUGCUACACAUCGUAUGUACCGAAUCGGUUUUGGUUUUGGGUUUUGGGAAAGUAUUAUGUUACGCCGUUCGGAUCUGCACUU | -1.07
ACCAUGCAGGUGGGCAUCUUAAAGAAGUGGGGCAAGGGGGGGAUAGGGAGGGGGGUAACACUUUGGGAACAGGUGGUCCCAGGUCGUUUC | 0.24
CACUGACAACACGCACCCACACAGACACAGAGGGAAGGGGUUGGGAUGGGGACAGGGUGCACAGCAGGGCGGGGUAGGACCCCAGCCCCU | -0.824
GUCCUGUGCUACACAUCGUAUGUACCGAAUCGGCCCCCGGGGCCCCCGGGCCCCCGGGGAAAGUAUUAUGUUACGCCGUUCGGAUCUGCA | -2.11
CAAGUCCUGUGCUACACAUCGUAUGUACCGAAUCGGGAAAGGGAAAGGAAAGGGGAAAGUAUUAUGUUACGCCGUUCGGAUCUGCACUUC | -0.00248
GGAUCAAAGCAAGUUGGAGAAACAUCAGCACCUGGAGACACCUUAGAUGGCACACCUCGUACUCUCAAUACUGUCUUUGAUUUCCCACCA | 0.406
CUCAAGUCCUGUGCUACACAUCGUAUGUACCGAAUCGGAAGGGGAAGGGAAGGAAAGUAUUAUGUUACGCCGUUCGGAUCUGCACUUCCA | -0.241

Sample 5
Target: Histone acetyltransferase KAT6A, both winged helices, GST fusion (KAT6A, Homo sapiens, UniProt Q92794, residues 1-181)
Method: protein binding microarray
Molecule type: double-stranded DNA, one strand shown
Matrix: in vitro
Concentration: not given
Notes: 8-mer, flanks averaged, mean of 2 arrays, mostly near background
Reference: not given
Direction: higher = stronger binding
Residues (chain): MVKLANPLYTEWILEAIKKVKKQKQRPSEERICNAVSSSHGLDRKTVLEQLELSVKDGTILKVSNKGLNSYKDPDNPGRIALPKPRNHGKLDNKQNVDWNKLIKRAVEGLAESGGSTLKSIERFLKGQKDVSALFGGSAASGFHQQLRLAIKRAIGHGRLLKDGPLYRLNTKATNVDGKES
Sequence | E-score
AGCCGAGA | 0.0854
ATCAGAGG | -0.0657
TCATTGCA | -0.207
ATACTGGG | -0.157
AATCAATA | -0.0739
CGTTTACA | 0.105
AGCCCCCA | -0.32
CAATACCC | -0.00453
AGAATCTA | -0.0865
GCTGCAGC | 0.159
GGCAGAGA | -0.0185
GCGAAGAA | -0.00504
ACCGCGTA | 0.255
CTCGCGTC | 0.18
GATGGCGC | 0.205
GCGATCAC | 0.2
ACATCCGT | 0.181
AATAGATC | -0.0528
GCGATAAC | 0.0703
AATTAGGT | -0.0704
TGAAGTAA | -0.159
ATATCAAA | -0.0827

Excerpt of the above (sample 3):
Variant | normalised enrichment score
SKACRTLFGPVDS [R6T] | 1.39
SKACRREFGPVDS [L7E] | -0.188
SKACRRLFGPVCS [D12C] | 2.59
SKACRMLFGPVDS [R6M] | 1.86
SKACTRLFGPVDS [R5T] | 0.34
SKACRRLFGPVTS [D12T] | 3.01
SKACRRLFGRVDS [P10R] | 2.42
SKACRRLFQPVDS [G9Q] | 4.81
SKACKRLLGPVDS [R5K F8L] | 0.174
SKACRGLFGPVDS [R6G] | 0.537
